Measurements of several laboratories.
± gives the spread as reported.
Cell line: Vero

Structure (SMILES)	assay	conditions	quantity	value
CCSc1c(-c2nc3ccccc3s2)c(N)n(NS(=O)(=O)c2ccccc2)c(=O)c1C#N		72 h	maximum non-toxic concentration	120 µg/mL
COc1ccc2c(Cc3ccccc3F)c3[n+](cc2c1OC)CCc1cc2c(cc1-3)OCO2	cytotoxicity, CCK-8	24 h	IC50	32.8 µM
COC(=O)N[C@H](C(=O)N1CC2(CC2)C[C@H]1c1ncc(-c2ccc3c(c2)C(F)(F)c2cc(-c4ccc5nc([C@@H]6[C@H]7CC[C@H](C7)N6C(=O)[C@@H](NC(=O)OC)C(C)C)[nH]c5c4)ccc2-3)[nH]1)C(C)C	Alamar Blue	96 h	CC50	34.9 µM
Nc1n[nH]c2c(-c3nc4ccccc4s3)c(N)n(NS(=O)(=O)c3ccccc3)c(=O)c12		72 h	maximum non-toxic concentration	90 µg/mL
Cc1ccc(S(=O)(=O)Nc2nc(N)c(-c3nc4ccccc4s3)c(-c3ccc(Cl)cc3)n2)cc1	cytotoxicity	72 h	maximum non-toxic concentration	100 µg/mL
Cc1ccc(S(=O)(=O)Nn2c(N)c(-c3nc4ccccc4s3)c3[nH]nc(N)c3c2=O)cc1		72 h	maximum non-toxic concentration	90 µg/mL
CC[C@]1(O)C[C@@H]2CN(CCc3c([nH]c4ccccc34)[C@@](C(=O)OC)(c3cc4c(cc3OC)N(C)[C@H]3[C@@](O)(C(=O)OC)[C@H](OC(C)=O)[C@]5(CC)C=CCN6CC[C@]43[C@@H]65)C2)C1	Alamar Blue	96 h	CC50	< 0.34 µM
COn1cc(-c2ccccc2)c(O)c([C@@H]2O[C@H]([C@H](C)CCOC(C)=O)[C@@H](C)C[C@H]2C)c1=O	cytotoxicity, neutral red	48 h	IC50	> 4.76 µg/mL
CC(C)(C)[C@@H]1NC(=O)O[C@@H]2CCC[C@H]2OC/C=C/C(F)(F)c2nc3ccccc3nc2O[C@@H]2C[C@@H](C(=O)N[C@]3(C(=O)NS(=O)(=O)C4(C)CC4)C[C@H]3C(F)F)N(C2)C1=O	Alamar Blue	96 h	CC50	38.9 µM
CCOC(=O)c1cc(C#N)c(=O)n(NS(=O)(=O)c2ccc(C)cc2)c1N		72 h	maximum non-toxic concentration	90 µg/mL
Nc1nc(NS(=O)(=O)c2ccccc2)nc(-c2ccccc2)c1-c1nc2ccccc2s1	cytotoxicity	72 h	maximum non-toxic concentration	90 µg/mL
CCSc1c(-c2nc3ccccc3s2)c(N)n(NS(=O)(=O)c2ccc(C)cc2)c(=O)c1C#N		72 h	maximum non-toxic concentration	120 µg/mL
C#CCC(Cc1cnc2nc(N)nc(N)c2n1)c1ccc(C(=O)N[C@@H](CCC(=O)O)C(=O)O)cc1 (stereo partly shown)	Alamar Blue	96 h	CC50	0.5 µM
Cc1ccc(S(=O)(=O)Nc2ncc(-c3nc4ccccc4s3)c(N)n2)cc1	cytotoxicity	72 h	maximum non-toxic concentration	110 µg/mL
O=C(Nc1cccc2c(=O)cc(-c3nnn[nH]3)oc12)c1ccc(OCCCCc2ccccc2)cc1	Alamar Blue	96 h	CC50	66.8 µM
CC[C@@H](C)[C@H]1O[C@@H](c2c(O)c(-c3ccccc3)cn(O)c2=O)[C@H](C)C[C@@H]1C	cytotoxicity, neutral red	48 h	IC50	1.4 µg/mL
CSc1nc(NS(=O)(=O)c2ccc(C)cc2)nc(N)c1-c1nc2ccccc2s1	cytotoxicity	72 h	maximum non-toxic concentration	100 µg/mL
CC1=C(/C=C/C(C)=C/C=C/C(C)=C/C=C/C=C(C)/C=C/C=C(C)/C=C/C2=C(C)CCCC2(C)C)C(C)(C)CCC1	Alamar Blue	96 h	CC50	139 µM
O=C(CNc1nc(NS(=O)(=O)c2ccccc2)ncc1-c1nc2ccccc2s1)c1ccc(Cl)cc1	cytotoxicity	72 h	maximum non-toxic concentration	110 µg/mL
CSc1c(-c2nc3ccccc3s2)c(N)n(NS(=O)(=O)c2ccccc2)c(=O)c1C#N		72 h	maximum non-toxic concentration	100 µg/mL
C[C@@H]1CC[C@H]2[C@@H](C)C(=O)O[C@@H]3O[C@@]4(C)CC[C@@H]1[C@]32OO4	cytotoxicity, neutral red	48 h	IC50	> 4.76 µg/mL
Nc1nc(NS(=O)(=O)c2ccccc2)ncc1-c1nc2ccccc2s1	cytotoxicity	72 h	maximum non-toxic concentration	100 µg/mL
COn1cc(-c2ccccc2)c(O)c([C@@H]2O[C@H]([C@H](C)CCO)[C@@H](C)C[C@H]2C)c1=O	cytotoxicity, neutral red	48 h	IC50	> 4.76 µg/mL
Cl.Oc1cccc2c1[nH]c1c(C3=CC4(O)CC/C=C\CCCCN5CCC3C3(CC6/C=C\CCCCN6C43)C5)nccc12 (single isomer, unassigned; (+))	cytotoxicity, neutral red	48 h	IC50	0.662 ± 0.137 µg/mL
Cc1ccc(C(=O)CNc2nc(NS(=O)(=O)c3ccccc3)ncc2-c2nc3ccccc3s2)cc1	cytotoxicity	72 h	maximum non-toxic concentration	100 µg/mL

A few entries again:
Structure (SMILES)	assay	conditions	quantity	value
O=C(Nc1cccc2c(=O)cc(-c3nnn[nH]3)oc12)c1ccc(OCCCCc2ccccc2)cc1	Alamar Blue	96 h	CC50	66.8 µM
CC[C@@H](C)[C@H]1O[C@@H](c2c(O)c(-c3ccccc3)cn(O)c2=O)[C@H](C)C[C@@H]1C	cytotoxicity, neutral red	48 h	IC50	1.4 µg/mL
CSc1nc(NS(=O)(=O)c2ccc(C)cc2)nc(N)c1-c1nc2ccccc2s1	cytotoxicity	72 h	maximum non-toxic concentration	100 µg/mL
